Results collected from several papers.
Lines come from different studies, so protocols differ. Several values in a cell are separate wells, animals, samples, runs or records. Numbers after ± are the reported error.
lasR: Transcriptional activator protein LasR (lasR, Pseudomonas aeruginosa, UniProt P25084)
lecA: PA-I galactophilic lectin (lecA, Pseudomonas aeruginosa, UniProt Q05097)

Structure (SMILES)	target	test	test system	conditions	scale	endpoint	result
O=[N+]([O-])c1ccc(OP(=O)(O)O)cc1	Alkaline phosphatase PafA (pafA, Elizabethkingia meningoseptica, UniProt Q9KJX5, K162A)	substrate	Chryseobacterium meningosepticum			Km	230 µM
CC(C)C[C@H](NC(=O)CN)C(=O)NCC(=O)N[C@@H](CCCCN)C(=O)N[C@@H](CC(C)C)C(=O)N[C@@H](CC(C)C)C(=O)N[C@@H](Cc1c[nH]cn1)C(=O)N[C@@H](C)C(=O)N[C@@H](C)C(=O)N[C@@H](CCCCN)C(=O)N[C@@H](CCCCN)C(=O)N[C@@H](CC(C)C)C(=O)NCC(=O)N[C@@H](CCCCN)C(=O)N[C@@H](C)C(=O)N[C@@H](Cc1c[nH]c2ccccc12)C(=O)N[C@@H](CC(C)C)C(=O)NCC(=O)N[C@@H](CCC(=O)O)C(=O)N[C@@H](CC(C)C)C(=O)N[C@@H](CC(C)C)C(=O)N[C@@H](C)C(=O)N[C@@H](C)C(=O)O	POPC membrane	membrane binding, stopped-flow FRET		mole fraction units, room temperature		binding free energy	-6.4 kcal/mol
CCCCCCCCCCCCNC(=O)CC(=O)c1ccccc1	lasR	reporter gene, antagonist	Pseudomonas aeruginosa PAO-JP2 GFP reporter	together with: 150 nM OdDHL		maximum inhibition	91%
C[C@@]1(O)CC[C@H]2[C@H](CC[C@@H]3[C@@H]2CC[C@]2(C)[C@@H](C(=O)Cn4cccn4)CC[C@@H]32)C1	Membrane progestin receptor delta (Paqr6, Mus musculus, UniProt Q6TCG5)	pPKA/PKA immunoblot	MDA-MB-231 expressing Paqr6-GFP	300 nM, 20 min	baseline: control	PKA activation	98.7 ± 4.59%
CC[C@H](C)[C@H](NC(=O)[C@H](Cc1c[nH]cn1)NC(=O)[C@H](CCCCNC(=O)[C@@H](NC(=O)[C@H](CCCCN)NC(=O)[C@H](Cc1ccccc1)NC(=O)[C@H](CCCCNC(=O)[C@H](CC(C)C)NC(=O)[C@@H]1CCCN1C(=O)[C@H](CCCCN)NC(=O)CCS[C@@H]1O[C@H](CO)[C@H](O)[C@H](O)[C@H]1O)NC(=O)[C@H](CC(C)C)NC(=O)[C@@H]1CCCN1C(=O)[C@H](CCCCN)NC(=O)CCS[C@@H]1O[C@H](CO)[C@H](O)[C@H](O)[C@H]1O)[C@@H](C)CC)NC(=O)[C@@H](NC(=O)[C@H](CCCCN)NC(=O)[C@H](Cc1ccccc1)NC(=O)[C@H](CCCCNC(=O)[C@H](CC(C)C)NC(=O)[C@@H]1CCCN1C(=O)[C@H](CCCCN)NC(=O)CCS[C@@H]1O[C@H](CO)[C@H](O)[C@H](O)[C@H]1O)NC(=O)[C@H](CC(C)C)NC(=O)[C@@H]1CCCN1C(=O)[C@H](CCCCN)NC(=O)CCS[C@@H]1O[C@H](CO)[C@H](O)[C@H](O)[C@H]1O)[C@@H](C)CC)C(N)=O	lecA	ITC		pH 7.5, 25 °C		entropy term (−TΔS)	0.3 kcal/mol
CC[C@H](C)[C@H](NC(=O)[C@H](CCC(=O)O)NC(=O)[C@H](CC(=O)O)NC(=O)c1ccc2c(c1)C(=O)OC21c2ccc(O)cc2Oc2cc(O)ccc21)C(=O)N[C@H](C(=O)N[C@@H](CC(N)=O)C(=O)N[C@@H](CCCCN)C(=O)N[C@H](C(=O)N[C@@H](CC(C)C)C(N)=O)C(C)C)C(C)C	yeast Vps4p Y33D	fluorescence polarization		concentration not given	baseline: wild-type Vps4p	binding affinity	decreased
CC(C)C[C@@H](N)C(=O)NCC(=O)N[C@H](C)C(=O)N[C@H](CO)C(=O)N[C@H](Cc1c[nH]c2ccccc12)C(=O)N[C@H](Cc1c[nH]cn1)C(=O)N[C@H](CCCNC(=N)N)C(=O)N1CCC[C@@H]1C(=O)N[C@H](CC(=O)O)C(=O)N[C@H](CCCCN)C(N)=O	C-X-C chemokine receptor type 4 (CXCR4, Homo sapiens, UniProt P61073, D97A)	antibody 12G5 binding		concentration not given, D97A mutant vs wild type		binding affinity change	decreased
CC[C@H](C)[C@H](NC(=O)[C@H](Cc1c[nH]cn1)NC(=O)[C@H](CCCCNC(=O)[C@@H](NC(=O)[C@H](CCCCN)NC(=O)CSC[C@H](NC(=O)[C@H](Cc1ccccc1)NC(=O)[C@H](CCCCNC(=O)[C@H](CC(C)C)NC(=O)[C@@H]1CCCN1C(=O)[C@H](CCCCN)NC(=O)C[C@@H]1O[C@@H](C)[C@@H](O)[C@@H](O)[C@@H]1O)NC(=O)[C@H](CC(C)C)NC(=O)[C@@H]1CCCN1C(=O)[C@H](CCCCN)NC(=O)c1ccc(O[C@@H]2O[C@H](CO)[C@H](O)[C@H](O)[C@H]2O)cc1)C(N)=O)[C@@H](C)CC)NC(=O)[C@@H](NC(=O)[C@H](CCCCN)NC(=O)CSC[C@H](NC(=O)[C@H](Cc1ccccc1)NC(=O)[C@H](CCCCNC(=O)[C@H](CC(C)C)NC(=O)[C@@H]1CCCN1C(=O)[C@H](CCCCN)NC(=O)C[C@@H]1O[C@@H](C)[C@@H](O)[C@@H](O)[C@@H]1O)NC(=O)[C@H](CC(C)C)NC(=O)[C@@H]1CCCN1C(=O)[C@H](CCCCN)NC(=O)c1ccc(O[C@@H]2O[C@H](CO)[C@H](O)[C@H](O)[C@H]2O)cc1)C(N)=O)[C@@H](C)CC)C(N)=O	lecA	binding, isothermal titration calorimetry		divided by galactoside copies	baseline: monovalent galactoside KD over ligand KD	relative potency per galactoside	20
COP(=O)(O)Oc1ccc([N+](=O)[O-])cc1	Alkaline phosphatase PafA (pafA, Elizabethkingia meningoseptica, UniProt Q9KJX5, N100A)		Chryseobacterium meningosepticum	pH 8.0	baseline: wild type over mutant kcat/KM	relative catalytic efficiency	150
CCCc1cc(Cc2ccccc2)cc2c1NCCC2NC(=O)C(N)Cc1c(C)cc(O)cc1C (stereo not shown)	Mu-type opioid receptor (Oprm1, Rattus norvegicus, UniProt P33535)	agonist	C6 cells expressing MOR		baseline: DAMGO at 10 µM	efficacy	90%
CN(C)C(=O)[C@@H](NC(=O)c1ccccc1-c1ccc(C(F)(F)F)cc1)c1cccc(C(F)(F)F)c1	NKG2-D type II integral membrane protein, with MICA (KLRK1, Homo sapiens, UniProt P26718)	cellular TR-FRET binding				ligand efficiency	0.23
O=c1c(Cl)c(Cl)cnn1Cc1ccccc1	Disulfide bond formation protein B (Escherichia coli, UniProt P0A6M2)	DsbA oxidation, inhibitor, AMS alkylation immunoblot		aerobic growth		concentration for full inhibition	20 to 50 µM
NCC1OC(OC(CO)C2CC(O)C(n3ccc(=O)[nH]c3=O)O2)C(O)C1O (stereo not shown)	Phospho-N-acetylmuramoyl-pentapeptide-transferase (mraY, Aquifex aeolicus, UniProt O66465)	isothermal titration calorimetry		concentration not given, wild type, together with: Mg2+		binding entropy	-19.9 ± 4.8 cal/mol/K
Cc1cc(N)nc(CC2CNCC2OCCNCC(F)(F)C2CCCCN2)c1 (stereo not shown)	Nitric oxide synthase, inducible (Nos2, Mus musculus, UniProt P29477)	hemoglobin capture			baseline: Ki iNOS over Ki nNOS	selectivity ratio	170
COc1ccc(NC(=O)Cn2c(=O)c3ccccc3n(CC(=O)Nc3cc([125I])c(OC)cc3OC)c2=O)cc1	Sphingosine 1-phosphate receptor 2 (Rattus norvegicus, UniProt P47752)	in vitro autoradiography	Sprague-Dawley rat, STZ-induced diabetes, kidney sections	dose not given, 12 weeks	baseline: control rats	binding increase	44% and ~44%
O=C(N[C@H]1CCOC1=O)c1ccc(-n2cc(C3CCCC3)nn2)cc1	lasR	reporter gene, agonist	Escherichia coli DH5α pJN105L/pSC11	10 µM	baseline: OdDHL 100 µM	activation	1%
CC1=C(C)C(=O)N(Cc2ccc(F)cc2)C1=O	Amyloid-beta precursor protein, amyloid-beta 1-40 oligomers (APP, Homo sapiens, UniProt P05067)	binding, STD NMR		highest STD		STD NMR signal	7.4%
CC[C@H](C)[C@H](NC(=O)[C@H](CO)NC(=O)[C@H](Cc1ccc(O)cc1)NC(=O)[C@H](CCCCN)NC(=O)[C@@H]1CCCN1C(=O)[C@H](CCSC)NC(=O)[C@H](Cc1ccccc1)NC(=O)[C@H](CCSC)NC(=O)[C@@H](NC(=O)[C@@H]1CCCN1C(=O)[C@H](Cc1ccccc1)NC(=O)[C@H](CC(=O)O)NC(=O)CN)C(C)C)C(=O)O	UDP-N-acetylglucosamine--peptide N-acetylglucosaminyltransferase 110 kDa subunit (OGT, Homo sapiens, UniProt O15294)	enzyme activity, fluorescence activity				highest concentration without inhibition	> 200 µM
O=C(Cn1cc(C2CCCCC2)nn1)N[C@H]1CCOC1=O	lasR	reporter gene, agonist	Escherichia coli, DH5α pJN105L/pSC11	100 µM	baseline: OdDHL at same concentration	activation	1%
O=C1CCC(N2Cc3c(ccc4c3OCC43CCN(Cc4ccccc4)CC3O)C2=O)C(=O)N1 (stereo not shown)	CRBN/Zinc finger protein Helios (Homo sapiens, UniProt Q96SW2+Q9UKS7)	Helios degradation, degrader, HiBiT	HEK293	6 h		Dmax	39%
CC(=O)NC(Cc1ccc(Br)c(Cl)c1)C(=O)N[C@@H](C)C(=O)N1CCC[C@H]1C(=O)N1CCC[C@H]1C(=O)N[C@@H](CCC(=O)O)C(=O)N[C@@H](Cc1c[nH]cn1)C(=O)N[C@@H](CO)C(=O)N[C@H](C(=O)N[C@@H](C)C(N)=O)[C@@H](C)OP(=O)(O)O (stereo partly shown)	Casein kinase I isoform alpha (CSNK1A1, Homo sapiens, UniProt P48729)			10 µM		inhibition	0.94 ± 0.05%
CC[C@H](C)[C@@H]1NC(=O)[C@H](Cc2ccc(O)cc2)NC(=O)[C@@H](N)CSSC[C@@H](C(=O)N2CCC[C@H]2C(=O)N2CCC[C@H]2C(=O)NCC(N)=O)NC(=O)[C@H](CC(N)=O)NC(=O)[C@H](CCC(N)=O)NC1=O	Oxytocin receptor (OXTR, Homo sapiens, UniProt P30559)	membrane hyperpolarisation	CHO cells			Emax	5300 RFU
CC(C)P(=S)(NP(=S)(C(C)C)C(C)C)C(C)C	Alpha-amylase (Bacillus subtilis, UniProt P00691)	fluorescence quenching		concentration not given, 304 K		number of binding sites	0.79 ± 0.05
CCCCC/C=C\C/C=C\C/C=C\C/C=C\CCCC(=O)NC(CO)C(=O)O (stereo in doubt)	Voltage-gated potassium channel, KQT; KCNQ2(Kv7.2)/KCNQ3(Kv7.3) (KCNQ3/KCNQ2, Homo sapiens, UniProt O43525+O43526)	two-electrode voltage clamp	Xenopus oocytes	10 and 100 µM		maximal conductance	increased
CC(C)C[C@@H](N)C(=O)NCC(=O)N[C@H](C)C(=O)N[C@H](CO)C(=O)N[C@H](Cc1c[nH]c2ccccc12)C(=O)N[C@H](Cc1c[nH]cn1)C(=O)N[C@H](CCCNC(=N)N)C(=O)N1CCC[C@@H]1C(=O)N[C@H](CC(=O)O)C(=O)N[C@H](CCCCN)C(=O)N[C@H](CSSC[C@@H](NC(=O)[C@@H](CCCCN)NC(=O)[C@@H](CC(=O)O)NC(=O)[C@H]1CCCN1C(=O)[C@@H](CCCNC(=N)N)NC(=O)[C@@H](Cc1c[nH]cn1)NC(=O)[C@@H](Cc1c[nH]c2ccccc12)NC(=O)[C@@H](CO)NC(=O)[C@@H](C)NC(=O)CNC(=O)[C@H](N)CC(C)C)C(=O)N[C@H](C)C(=O)N[C@H](CC(C)C)C(=O)NCC(=O)N[C@H](Cc1ccc(O)cc1)C(=O)N[C@H](CCC(N)=O)C(=O)N[C@H](CCCCN)C(=O)N[C@H](CCCNC(=N)N)C(=O)N1CCC[C@@H]1C(=O)N[C@H](CC(C)C)C(=O)N1CCC[C@@H]1C(N)=O)C(=O)N[C@H](C)C(=O)N[C@H](CC(C)C)C(=O)NCC(=O)N[C@H](Cc1ccc(O)cc1)C(=O)N[C@H](CCC(N)=O)C(=O)N[C@H](CCCCN)C(=O)N[C@H](CCCNC(=N)N)C(=O)N1CCC[C@@H]1C(=O)N[C@H](CC(C)C)C(=O)N1CCC[C@@H]1C(N)=O	C-X-C chemokine receptor type 4 (CXCR4, Homo sapiens, UniProt P61073, Y45A)		293 cells	300 nM, together with: 12G5 antibody 5 µg/mL	baseline: wild type	binding decrease	20%
